Published values gathered from unrelated publications.
Numbered parts are unrelated; each lists some results of a single study.

Study 1
Target: Histone acetyltransferase KAT6A, winged helix 2, GST fusion (KAT6A, Homo sapiens, UniProt Q92794, residues 85-181)
Method: protein binding microarray
Molecule type: double-stranded DNA, one strand shown
Medium: in vitro
Concentration: not given
Notes: 8-mer, flanks averaged, mean of 2 arrays, mostly near background
Reference: not given
Direction: higher = stronger binding
Measurement: E-score
Construct (chain): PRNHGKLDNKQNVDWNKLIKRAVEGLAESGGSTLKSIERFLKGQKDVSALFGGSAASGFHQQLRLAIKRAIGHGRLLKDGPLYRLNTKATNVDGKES
AGTAGACA: 0.0691
ACTATACT: -0.0211
ACTTGTGC: -0.142
ATAGCCAA: 0.0928
AGTAGAGC: -0.107
CAGTAAAA: 0.168
AGCACAAT: 0.059
TCCACGAA: 0.208
GTGGATAA: -0.12
GGTTGAAA: -0.103
ATAACATC: 0.0625
CGAAGCTA: 0.0563
ACATAGTC: -0.0995
AGTGTGTA: 0.0467
TCACGTAA: -0.221
CTCATGAC: 0.0014
CGCACAAC: 0.014
ATCCTGAC: -0.0526

Study 2
Target: Prothrombin, mature alpha-thrombin (F2, Homo sapiens, UniProt P00734)
Method: aptamer microarray, sandwich
Molecule type: DNA with 2'F-ANA
Medium: in vitro
Concentration: 200 nM
Notes: whole 15-mer aptamer, many near background
Together with: Cy3 exosite-II aptamer, 400 nM
Direction: higher = stronger binding
Measurement: mean fluorescence intensity
Oligonucleotide: GGTTGGTGTGGTTGG
2'F-ANA at 1 2 4 5 7 8 10 11 14 15: 43.9 a.u.
2'F-ANA at 1 3 7 8 11 13 14: 102 a.u.
2'F-ANA at 1 3 4 5 11 15: 49.5 a.u.
2'F-ANA at 2 4 7 9 11 12 14 15: 113 a.u.
2'F-ANA at 1 2 3 4 6 7 9 10 13 14 15: 57.2 a.u.
2'F-ANA at 1 2 4 5 8 10 11 13 14: 50.2 a.u.
2'F-ANA at 1 2 9 10 11 12: 61.5 a.u.
2'F-ANA at 1 2 3 4 9 14 15: 59.3 a.u.
2'F-ANA at 1 3 5 7 10: 47.6 a.u.
2'F-ANA at 1 3 4 5 9 10 11 12 15: 53.9 a.u.
2'F-ANA at 3 5 8 9 10 11 12 13 14: 54.2 a.u.
2'F-ANA at 2 3 4 5 6 7 8 10 11 12 13 14 15: 52.8 a.u.
2'F-ANA at 2 3 4 5 6 8 14: 53.8 a.u.
2'F-ANA at 2 4 6 7 8 11 12 13 15: 297 a.u.
2'F-ANA at 2 4 6 8 9 10 13 14: 76.7 a.u.
2'F-ANA at 1 7 8 11 12 14 15: 75.8 a.u.
2'F-ANA at 6 7 11 13 14 15: 153 a.u.
2'F-ANA at 1 2 4 5 6 12 14 15: 48.2 a.u.
2'F-ANA at 1 5 6 7 8 10 15: 50.4 a.u.

Study 3
Target: Fragile X messenger ribonucleoprotein 1, C-terminal low-complexity region (Fmr1, Mus musculus, UniProt P35922)
Method: RNA Bind-n-Seq
Molecule type: RNA
Medium: in vitro
Concentration: 200 nM
Notes: whole 134-nt RNA, ends assumed
Together with: 150 mM KCl
Reference: input library
Direction: higher = stronger binding
Measurement: log2 enrichment
Constant ends, left off below: GGGAGUUCUACAGUCCGACGAUC … UGGAAUUCUCGGGUGUCAAGG
ACCAUGCAGGUGGGCAUCUUUGGGAAGUGGGGCAAGGGGGGGAUAGGGAGGGGGGUAACACUUUGGGAACAGGUGGUCCCAGGUCAAAUC: 0.591
AGUCCUGUGCUACACAUCGUAUGUACCGAAUCGGAAAAAAAGGAAAAAGGUUUUUGGAAAGUAUUAUGUUACGCCGUUCGGAUCUGCACU: -1.18
ACCAUGCAGGUGGGCAUCUUUGGGAAGUGGGGCAAGGGGGGGAUAGGGAGGGGGGUAACACUUUGGGAACAGGUGGUCCCAUGUCGUUUC: 0.903
CCUGUGCUACACAUCGUAUGUACCGAAUCGGUUUUUUUGGGGUUUUUUUGGUUUUUUUGGGAAAGUAUUAUGUUACGCCGUUCGGAUCUG: -0.773
UCCUGUGCUACACAUCGUAUGUACCGAAUCGGGGAGGGGAAAAAGGGGUUUUUUUGGGGAAAGUAUUAUGUUACGCCGUUCGGAUCUGCA: 0.531
AGUCCUGUGCUACACAUCGUAUGUACCGAAUCGGGGAGGGGAAAGGGGUUUUUGGGGAAAGUAUUAUGUUACGCCGUUCGGAUCUGCACU: 0.669
CUCAAGUCCUGUGCUACACAUCGUAUGUACCGAAUCGGUUUUUGGAAAGGAGGAAAGUAUUAUGUUACGCCGUUCGGAUCUGCACUUCCA: -0.234
CUCAAGUCCUGUGCUACACAUCGUAUGUACCGAAUCGGUGGAGGAAAAAAAGGAAAGUAUUAUGUUACGCCGUUCGGAUCUGCACUUCCA: -0.273
CACAGACCACACGCACCCACACAGACACAGAGGGAAGGGGUUGGGAUGGGGACAGGGUGCACAGCAGGGCGGGGUAGGACCCCAGCCCCU: 1.26

Study 4
Target: Interferon regulatory factor 7, full length, phosphomimetic (IRF7, Homo sapiens, UniProt Q92985, residues 1-503, S471D/S472D/S475D/S476D/S477D/S483D/S484D/S487D)
Chain of UniProt Q92985 (whole entry, unmodified, looked up): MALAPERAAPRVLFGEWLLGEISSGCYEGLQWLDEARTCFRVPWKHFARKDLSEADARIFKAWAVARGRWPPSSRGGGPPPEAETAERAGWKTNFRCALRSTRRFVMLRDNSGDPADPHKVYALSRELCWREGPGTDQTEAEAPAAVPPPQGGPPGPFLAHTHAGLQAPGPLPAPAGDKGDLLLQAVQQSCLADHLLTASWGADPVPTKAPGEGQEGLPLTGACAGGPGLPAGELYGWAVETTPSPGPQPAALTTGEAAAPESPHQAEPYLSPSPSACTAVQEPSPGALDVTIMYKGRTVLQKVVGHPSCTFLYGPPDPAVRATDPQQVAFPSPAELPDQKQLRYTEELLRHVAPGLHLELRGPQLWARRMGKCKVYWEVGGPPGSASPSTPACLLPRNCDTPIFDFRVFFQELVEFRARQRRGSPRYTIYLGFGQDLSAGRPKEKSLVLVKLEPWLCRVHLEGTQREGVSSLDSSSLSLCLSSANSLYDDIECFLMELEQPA
Method: protein-binding microarray
Molecule type: double-stranded DNA, one strand shown
Medium: in vitro
Concentration: 2200 nM top
Notes: 60-bp whole probe
Together with: salmon DNA 0.4 mg/ml
Reference: random background probes
Direction: higher = stronger binding
Measurement: fitted relative affinity
Constant ends, left off below: GCCTAGCAC … GTCTTGATTCGCTTGACGCTGCTG
GACGGTTTCCCTTCCCTGACGTGCTAG: 4.22 z-score
GACGGTCTCCTGCTCCTGACGTGCTAG: 0.354 z-score
TCATATGTATATATGTGACTGTGCTAG: 0.911 z-score
GTCGGTTTCGGTTTCGGGACGTGCTAG: 16.1 z-score
TCACATTTGGAAAATGTAACTGTGCTA: 0.584 z-score
TCATATTTAGAACTTCTCACTGTGCTA: 0.519 z-score
TTAGATTTCGGGAATCGATTAGTGCTA: 0.561 z-score
GACAGTATCGACTATCGGGACGTGCTA: -0.0708 z-score
TGAGGTTTCCTTATCCTTTAGTGCTAG: 1.74 z-score
TTAGATAACAGACTGGATTAGTGCTAG: -0.525 z-score
TTAGGTTTCGCGACTGGGTTAGTGCTA: 1.25 z-score
TTAGGTCACCTTCTCCTTTAGTGCTAG: 0.848 z-score
TTAGATTTCAGGCTGGATTAGTGCTAG: -0.0817 z-score
TCACATTCCCCATTGTGACTGTGCTAG: 2.95 z-score
TTAGGCCTCGGTATCGGTTAGTGCTAG: 0.226 z-score
GACAGTATCGGGTTTCGGGACGTGCTA: 2 z-score
TTAGGTTTCGGTCTCGATTAGTGCTAG: 5.97 z-score
GACGATATCAGTATCGAGTCGTGCTAG: 0.697 z-score
ATTTTTTTGTAATCGAAATCTGTGCTA: 0.709 z-score

Excerpt of the above (study 4):
GTCGGTTTCGGTTTCGGGACGTGCTAG: 16.1 z-score
TCACATTTGGAAAATGTAACTGTGCTA: 0.584 z-score
TCATATTTAGAACTTCTCACTGTGCTA: 0.519 z-score
TTAGATTTCGGGAATCGATTAGTGCTA: 0.561 z-score
GACAGTATCGACTATCGGGACGTGCTA: -0.0708 z-score
TGAGGTTTCCTTATCCTTTAGTGCTAG: 1.74 z-score
TTAGATAACAGACTGGATTAGTGCTAG: -0.525 z-score
TTAGGTTTCGCGACTGGGTTAGTGCTA: 1.25 z-score
TTAGGTCACCTTCTCCTTTAGTGCTAG: 0.848 z-score
TTAGATTTCAGGCTGGATTAGTGCTAG: -0.0817 z-score
